Measured values pooled from the literature.
Every numbered part comes from another study and shows a few of its results, in no order. Substitutions count along the parent as printed.

Set 1
Target: CCNB1, cyclin fold, Cln2 fusion (human)
Technique: yeast growth competition, sequencing
Matrix: yeast
Setting: weak parent motif
Baseline: not given
Reading: higher = stronger binding
Starting sequence: SAMHD1 docking peptide (human); ASKSRVQLFKDDP
`R5L`: “normalised enrichment score” -0.152.
For `R5C`, “normalised enrichment score” read 0.293.
`L8R`: “normalised enrichment score” 0.501.
For `D12F`, “normalised enrichment score” read -0.114.
For `K10A`, “normalised enrichment score” read 0.227.
`S2W` — result for “normalised enrichment score”: 0.194.
Under “normalised enrichment score”, `L8Q` is recorded as -0.0366.
`D11C` — result for “normalised enrichment score”: 0.366.
`Q7N` — result for “normalised enrichment score”: 0.437.
`K10F` — result for “normalised enrichment score”: -0.112.
`K3S` — result for “normalised enrichment score”: 0.102.
Under “normalised enrichment score”, `K10E` is recorded as 0.231.
Under “normalised enrichment score”, `S2D` is recorded as 0.167.
Under “normalised enrichment score”, `K3L` is recorded as 0.396.
`Q7P`: “normalised enrichment score” 0.257.
`K3G`: “normalised enrichment score” 0.303.

Set 2
Target: Sal-like protein 4, full length isoform B (SALL4, Homo sapiens, UniProt Q9UJQ4-2, residues 1-616)
Technique: universal PBM
Molecule type: double-stranded DNA, one strand shown
Matrix: in vitro
Tested at: not given
Setting: 8-mer, flanks averaged, mean of replicates
Reading: higher = stronger binding
The E-score of `TACCATGA` is reported as 0.133.
With `CTTAATAC` the E-score was 0.216.
The E-score of `ACAAAAAG` is reported as 0.16.
`AAGAAGAC` has an E-score of 0.0653.
With `CCAGAGGA` the E-score was -0.191.
`CATACTAA` has an E-score of 0.198.
With `ATCGGCCA` the E-score was -0.186.
The E-score of `GGGGGGTA` is reported as -0.249.
For `GCGCCGAA`, the E-score was -0.187.
The E-score of `GGACCGCC` is reported as -0.332.
For `GGCAACTA`, the E-score was 0.0206.
`AACAGACG` has an E-score of -0.148.
The E-score of `CACAGTTC` is reported as -0.0657.
With `TACTTCTA` the E-score was 0.156.
With `AAATTATA` the E-score was 0.391.
`TGGATTAA` gave an E-score of 0.253.
The E-score of `CAACCCTG` is reported as -0.0411.
With `AGGATGAG` the E-score was -0.016.
For `CGCACTAA`, the E-score was 0.0173.
`GCAAGTAA` gave an E-score of 0.106.

Set 3
Target: Ras GTPase-activating protein-binding protein 1, full length (G3BP1, Homo sapiens, UniProt Q13283)
Chain of UniProt Q13283 (whole entry, looked up): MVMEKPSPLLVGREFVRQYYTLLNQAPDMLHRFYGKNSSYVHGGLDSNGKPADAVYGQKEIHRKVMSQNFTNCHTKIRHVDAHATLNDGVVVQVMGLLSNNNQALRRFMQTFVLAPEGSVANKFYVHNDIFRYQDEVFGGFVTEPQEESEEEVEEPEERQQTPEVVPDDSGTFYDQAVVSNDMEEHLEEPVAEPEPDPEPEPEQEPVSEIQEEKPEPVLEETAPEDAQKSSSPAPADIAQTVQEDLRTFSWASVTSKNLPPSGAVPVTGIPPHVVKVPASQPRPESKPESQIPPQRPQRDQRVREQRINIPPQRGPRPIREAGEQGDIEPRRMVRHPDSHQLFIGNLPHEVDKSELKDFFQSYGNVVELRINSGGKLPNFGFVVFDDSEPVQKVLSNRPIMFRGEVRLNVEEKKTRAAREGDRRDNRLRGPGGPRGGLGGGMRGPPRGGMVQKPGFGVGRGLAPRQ
Technique: RNA Bind-n-Seq
Molecule type: RNA
Matrix: in vitro
Tested at: 200 nM
Setting: whole 134-nt RNA, ends assumed
Added: 150 mM LiCl
Baseline: input library
Reading: higher = stronger binding
All molecules: 7-deaza-guanosine replaces G
`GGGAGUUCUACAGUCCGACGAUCCCUGUGCUACACAUCGUAUGUACCGAAUCGGAAAAAAAGGGAAAAAAAGGGAAAAAAAGGAAAGUAUUAUGUUACGCCGUUCGGAUCUGCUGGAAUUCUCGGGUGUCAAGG` gave a log2 enrichment of -0.16.
With `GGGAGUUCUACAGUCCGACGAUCCAGCAGCAGAGUGAGUGGAUUUUAUUUUUCGUUAUUGUUGGUGGUUUAAAAAAUUCCCCCCAUGUAAUUAUUGUGAACACCUUGCUUUGUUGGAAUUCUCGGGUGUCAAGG` the log2 enrichment was -0.932.
For `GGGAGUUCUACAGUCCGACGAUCUUUCUAGCUGGACCAGUCCGGUACGCUCCGGGCCUCACCGAGGAAGUCCCACCCUGCAGGGGAACCGACUCUGGCCGGCCCUAACCCCUCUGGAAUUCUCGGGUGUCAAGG`, the log2 enrichment was 0.417.
With `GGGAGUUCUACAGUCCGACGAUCUCAAGUCCUGUGCUACACAUCGUAUGUACCGAAUCGGGUUUGGGGUUUGGUUUGGAAAGUAUUAUGUUACGCCGUUCGGAUCUGCACUUCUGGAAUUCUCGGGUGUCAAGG` the log2 enrichment was -0.272.
The log2 enrichment of `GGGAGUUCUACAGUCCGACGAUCGUCCUGUGCUACACAUCGUAUGUACCGAAUCGGGUUUUUGGGUUUUUUUGGGAAAGGGAAAGUAUUAUGUUACGCCGUUCGGAUCUGCACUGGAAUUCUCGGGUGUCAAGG` is reported as -0.195.
The log2 enrichment of `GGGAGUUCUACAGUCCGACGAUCCAAGUCCUGUGCUACACAUCGUAUGUACCGAAUCGGGGAGGGGAGGGGAAAGGGGAAAGUAUUAUGUUACGCCGUUCGGAUCUGCACUUCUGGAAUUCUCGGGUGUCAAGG` is reported as 0.357.
`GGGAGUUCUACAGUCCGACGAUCCACAGACAACACGCACCCACACAGACACAGAGGGAAGGGGUUGGGAUGGGGACAGGGUGCACAGCAGGGCGGGGUAGGACCCCGGCCCCUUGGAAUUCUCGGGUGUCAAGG` gave a log2 enrichment of -0.735.
The log2 enrichment of `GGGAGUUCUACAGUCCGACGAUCCAAGUCCUGUGCUACACAUCGUAUGUACCGAAUCGGGAGGGUUUGGGAAAAAGGGAAAGUAUUAUGUUACGCCGUUCGGAUCUGCACUUCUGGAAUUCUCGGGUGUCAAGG` is reported as 0.226.
`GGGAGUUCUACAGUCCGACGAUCGUCCUGUGCUACACAUCGUAUGUACCGAAUCGGCCCCCCGGCCCCCCGGCCCCCCGGGAAAGUAUUAUGUUACGCCGUUCGGAUCUGCACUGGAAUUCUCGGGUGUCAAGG` has a log2 enrichment of -0.167.
`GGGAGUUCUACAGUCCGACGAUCUGUGGGUCCUCCUGCACCUGGUGCUGGCCUUCCUGUCCCUGCGCUCUUUGACAGCCUCCUGACCUGUAGGACGAGGGAUUCCUUGUUCUUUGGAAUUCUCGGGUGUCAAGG` has a log2 enrichment of 0.697.
The log2 enrichment of `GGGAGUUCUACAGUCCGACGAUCCUCAAGUCCUGUGCUACACAUCGUAUGUACCGAAUCGGUUUUUGGAGGAAAGGAAAGUAUUAUGUUACGCCGUUCGGAUCUGCACUUCCAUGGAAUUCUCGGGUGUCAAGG` is reported as 0.0578.

Single results of other studies
`PhoQ, residues 284 288 289 292 302 303 SNSSNI` gave a fold induction of 0.846 (PhoP, residues 12 14 15 18 19 TPLRH (Escherichia coli, UniProt P23836); Sort-seq, refers to: YFP reporter; E. coli; PhoQ-PhoP variant library, added: 10 µM Mg2+; baseline: high Mg2+ state, higher = stronger signaling).

A few entries again (set 3):
`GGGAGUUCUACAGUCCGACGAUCUGUGGGUCCUCCUGCACCUGGUGCUGGCCUUCCUGUCCCUGCGCUCUUUGACAGCCUCCUGACCUGUAGGACGAGGGAUUCCUUGUUCUUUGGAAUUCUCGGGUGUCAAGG` has a log2 enrichment of 0.697.
The log2 enrichment of `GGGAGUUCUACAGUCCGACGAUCCUCAAGUCCUGUGCUACACAUCGUAUGUACCGAAUCGGUUUUUGGAGGAAAGGAAAGUAUUAUGUUACGCCGUUCGGAUCUGCACUUCCAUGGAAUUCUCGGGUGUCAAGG` is reported as 0.0578.
With `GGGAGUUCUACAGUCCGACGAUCCAGCAGCAGAGUGAGUGGAUUUUAUUUUUCGUUAUUGUUGGUGGUUUAAAAAAUUCCCCCCAUGUAAUUAUUGUGAACACCUUGCUUUGUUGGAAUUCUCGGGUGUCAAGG` the log2 enrichment was -0.932.
The log2 enrichment of `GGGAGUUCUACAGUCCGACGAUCCAAGUCCUGUGCUACACAUCGUAUGUACCGAAUCGGGAGGGUUUGGGAAAAAGGGAAAGUAUUAUGUUACGCCGUUCGGAUCUGCACUUCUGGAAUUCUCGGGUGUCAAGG` is reported as 0.226.
The log2 enrichment of `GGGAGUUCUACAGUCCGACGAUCGUCCUGUGCUACACAUCGUAUGUACCGAAUCGGGUUUUUGGGUUUUUUUGGGAAAGGGAAAGUAUUAUGUUACGCCGUUCGGAUCUGCACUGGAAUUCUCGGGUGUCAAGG` is reported as -0.195.
For `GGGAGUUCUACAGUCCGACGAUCUUUCUAGCUGGACCAGUCCGGUACGCUCCGGGCCUCACCGAGGAAGUCCCACCCUGCAGGGGAACCGACUCUGGCCGGCCCUAACCCCUCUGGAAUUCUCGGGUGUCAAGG`, the log2 enrichment was 0.417.
`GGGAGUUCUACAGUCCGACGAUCCCUGUGCUACACAUCGUAUGUACCGAAUCGGAAAAAAAGGGAAAAAAAGGGAAAAAAAGGAAAGUAUUAUGUUACGCCGUUCGGAUCUGCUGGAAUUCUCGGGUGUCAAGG` gave a log2 enrichment of -0.16.
With `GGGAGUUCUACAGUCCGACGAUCUCAAGUCCUGUGCUACACAUCGUAUGUACCGAAUCGGGUUUGGGGUUUGGUUUGGAAAGUAUUAUGUUACGCCGUUCGGAUCUGCACUUCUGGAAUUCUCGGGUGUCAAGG` the log2 enrichment was -0.272.
